Published values gathered from unrelated publications.
Values joined by “and” are separate records of one study, mostly repeats; a detail may differ.
Observed: metabolic stability
Medium: liver microsomes

`Oc1cc2nc(c1)CNCc1cc(O)cc(n1)CNC2` has a microsomal CLint of 5.4 µL/min/mg (mouse).
`CNC(=O)C1CCN(c2cc(C)ccc2NC(=O)c2ccc(-c3cc(O)ccc3C)c(C)c2)CC1` has a microsomal CLint of 142 µL/min/mg (mouse; 2 µM).
For `CCn1cc(C(=O)NCCNCCO)c(=O)c2cc(OCc3ccc(C(F)(F)F)cc3)c(C(F)(F)F)cc21`, the microsomal CLint was under 11.6 µL/min/mg (male CD-1 mouse; 1 µM).
`CNC(=O)C1CCN(c2cc(C)c(F)cc2NC(=O)c2ccc(-c3c(C)ccc4[nH]ncc34)c(C)c2)CC1` gave a microsomal CLint of 50 µL/min/mg (mouse; 2 µM).
The microsomal CLint of `C[N+]1(CC(=O)OC2CCCCCCCCCCC2)CCCCC1` is reported as 306 µL/min/mg (mouse).
The microsomal CLint of `O=C(Nc1ccc(OCCN2CCCC2)cc1)c1cc2ccc(Cl)cc2s1` is reported as 25 µL/min/mg (female mouse).
With `CCc1nc(N)nc(N)c1C#CC(C)c1cccc(-c2cc(C)nc(C)c2)c1` (racemic) the microsomal CLint was ~70 µL/min/mg and 69 µL/min/mg (mouse).
For `O=C(C1CCN(c2nnnn2-c2ccccc2)CC1)N1CCCc2ccccc21`, the microsomal CLint was over 578 µL/min/mg (mouse; 1 µM).
`O=C(c1ccc(-c2cc3nccc(-c4ccc5cnccc5c4)c3o2)cc1)N1CCNCC1` gave a microsomal CLint of 180 µL/min/mg (mouse).
For `CNC(=O)C1CCN(c2ccccc2NC(=O)c2ccc(-c3cc(O)ccc3C)c(C)c2)CC1`, the microsomal CLint was 230 µL/min/mg (mouse; 2 µM).
For `CCc1nc(N)nc(N)c1C#C[C@H](C)c1cc(-c2cc(C)nc(C)c2)ccc1Cl`, the microsomal CLint was 18 µL/min/mg (mouse).
For `NC[C@@H](C(=O)Nc1ccc(-c2cn[nH]c2)cc1)c1ccccc1`, the microsomal CLint was 45.4 µL/min/mg (mouse).
`COc1cc2c(=O)c(C(=O)NCCNCCO)cn(Cc3ccccc3)c2cc1OCc1ccc(C(C)(C)C)cc1` has a microsomal CLint of under 11.6 µL/min/mg (male CD-1 mouse; 1 µM).
The microsomal CLint of `CNC(=O)c1cc(C)ccc1NC(=O)c1ccc(-c2c(C)ccc3[nH]ncc23)c(C)c1` is reported as 36 µL/min/mg (mouse; 2 µM).
For `COc1cc(C)c(-c2ccc(O)c3c2C[C@@H](C)N[C@@H]3C)c2cccc(O)c12` (single isomer, unassigned), the microsomal CLint was 95.1 µL/min/mg (male CD-1 mouse; 1 µM).
`[2H]C([2H])([2H])Oc1ccc(-c2cc(C)nc(C)c2)cc1C(C)C#Cc1c(N)nc(N)nc1CC` (racemic) has a microsomal CLint of about 154 µL/min/mg (mouse).
`O=C(NCCNCCO)c1cn(Cc2ccccc2)c2c(Cl)c(OCc3ccc(C(F)(F)F)cc3)c(Cl)cc2c1=O` has a microsomal CLint of under 11.6 µL/min/mg (male CD-1 mouse; 1 µM).

Excerpt of the above:
`COc1cc2c(=O)c(C(=O)NCCNCCO)cn(Cc3ccccc3)c2cc1OCc1ccc(C(C)(C)C)cc1` has a microsomal CLint of under 11.6 µL/min/mg (male CD-1 mouse; 1 µM).
The microsomal CLint of `CNC(=O)c1cc(C)ccc1NC(=O)c1ccc(-c2c(C)ccc3[nH]ncc23)c(C)c1` is reported as 36 µL/min/mg (mouse; 2 µM).
